Results from different studies.
Several values in a cell are separate wells, animals, samples, runs or records. ± gives the spread as reported.
B1: coatomer subunit beta', human; sequence looked up; chain PLRLDIKRKLTARSDRVKSVDLHPTEPWMLASLYNGSVCVWNHETQTLVKTFEVCDLPVRAAKFVARKNWVVTGADDMQIRVFNYNTLERVHMFEAHSDYIRCIAVHPTQPFILTSSDDMLIKLWDWDKKWSCSQVFEGHTHYVMQIVINPKDNNQFASASLDRTIKVWQLGSSSPNFTLEGHEKGVNCIDYYSGGDKPYLISGADDRLVKIWDYQNKTCVQTLEGHAQNVSCASFHPELPIIITGSEDGTVRIWHSSTYRLESTLNYGMERVWCVASLRGSNNVALGYDEGSIIVKLGREEPAMSMDANGKIIWAKHSEVQQANLKAMGDAEIKDGERLPLAVKDMGSCEIYPQTIQHNPNGRFVVVCGDGEYIIYTAMALRNKSFGSAQEFAWAHDSSEYAIRESNSIVKIFKNFKEKKSFKPDFGAESIYGGFLLGVRSVNGLAFYDWDNTELIRRIEIQPKHIFWSDSGELVCIATEESFFILKYLSEKVLAAQETHEGVTEDGIEDAFEVLGEIQEIVKTGLWVGDCFIYTSSVNRLNYYVGGEIVTIAHLDRTMYLLGYIPKDNRLYLGDKELNIISYSLLVSVLEYQTAVMRRDFSMADKVLPTIPKEQRTRVAHFLEKQGFKQQALTVSTDPEHRFELALQLGELKIAYQLAVEAESEQKWKQLAELAISKCQFGLAQECLHHAQDYGGLLLLATASGNANMVNKLAEGAERDGKNNVAFMSYFLQGKVDACLELLIRTGRLPEAAFLARTYLPSQVSRVVKLWRENLSKVNQKAAESLADPTEYENLFPGLKEAFVVEEWVKETHADLWPAKQYPLVTPNEERNVMEEGKDFQPSRSTAQQELDGKPASPTPVIVASHTANKEEKSLLELEVDLDNLELEDIDTTDINLDEDILDD
B2: proteasome subunit alpha-3 (human); sequence looked up; chain SSIGTGYDLSASTFSPDGRVFQVEYAMKAVENSSTAIGIRCKDGVVFGVEKLVLSKLYEEGSNKRLFNVDRHVGMAVAGLLADARSLADIAREEASNFRSNFGYNIPLKHLADRVAMYVHAYTLYSAVRPFGCSFMLGSYSVNDGAQLYMIDPSGVSYGYWGCAIGKARQAAKTEIEKLQMKEMTCRDIVKEVAKIIYIVHDEVKDKAFELELSWVGELTNGRHEIVPKDIREEAEKYAKESLKEEDESDDDNM

Substance	tested on	test	test system	conditions	scale	endpoint	value
CTCATTGTCT	Salmonella enterica serovar Typhimurium	RNA-seq, refers to: artI (SL1344_0866)	peptide, SL1344	5 µM, 15 min	baseline: water control	log2 fold change	-2.48
Nisin	Bacillus subtilis	bacterial cytological profiling	ATCC 6633	concentration not given		cell area	1.1 µm² and 0.9 µm² and 1.2 µm²
Ivermectin	Trypanosoma cruzi		Vero, Tulahuen, β-galactosidase-expressing		baseline: Vero TC50 over T. cruzi IC50	selectivity index	1.4
polymyxin B1	Pseudomonas aeruginosa	broth microdilution	ATCC 27853	with: Survanta 10% (2.5 mg/mL phospholipid)	baseline: without surfactant	MIC fold increase	8 fold
CTGTTACTCT	Salmonella enterica serovar Typhimurium	RNA-seq, refers to: sfcA (SL1344_1496)	peptide, SL1344	5 µM, 15 min	baseline: water control	log2 fold change	-1.63
colistin	Klebsiella pneumoniae		NCTC 13424		baseline: 5% CO2 over ambient air	MIC fold shift	2
CTTTCATGCG (PNA, CPP-conjugated)	Salmonella enterica serovar Typhimurium	refers to: CFU	peptide, SL1344, Caenorhabditis elegans infection model, worms	2 × MIC, 24 h	baseline: untreated	bacterial load reduction	73.3%
verteporfin	Drosophila melanogaster	food ingestion, fluorescein feeding	first instar larvae	40 µg/mL	baseline: solvent-treated	relative fluorescence	-48.5%
silver nitrate	Candida albicans	crystal violet staining	ATCC 10231	3.5 µg/mL		biofilm inhibition	62 ± 4%
CTCTAACTCT	Salmonella enterica serovar Typhimurium	RNA-seq, refers to: SL1344_0983	peptide, SL1344	5 µM, 15 min	baseline: water control	log2 fold change	1.05
B1 (coatomer subunit beta', human)	CYB5R4 knockout human cells	PP4 interaction, 3xFLAG-PP4C IP-MS		concentration not given	baseline: CYB5R4 KO over parental	log2 fold change	0.3
GACATACTCT	Salmonella enterica serovar Typhimurium	RNA-seq, refers to: nuoB (SL1344_2296)	peptide, SL1344	5 µM, 15 min	baseline: water control	log2 fold change	-2.54
B2 (proteasome subunit alpha-3)	CYB5R4 knockout human cells	PP4 interaction, 3xFLAG-PP4C IP-MS		concentration not given	baseline: CYB5R4 KO over parental	log2 fold change	0.0231
CTCATAGACT	Salmonella enterica serovar Typhimurium	RNA-seq, refers to: lipA (SL1344_0621)	peptide, SL1344	5 µM, 15 min	baseline: water control	log2 fold change	-2.33
milbemycin oxime	Saccharomyces cerevisiae	cell growth	Pdr5 deleted, Cdr1 overexpressed	2^-6.966 µg/mL, with: fluconazole 10 µg/mL		OD600	0.853 and 0.894 and 0.709
Phosphate	Saccharomyces cerevisiae	cell growth, OD600 after 16 h	Pho84 strain	with: 93 mM NaH2PO4		EC50	< 4 mM
colistin	Escherichia coli	broth microdilution	clinical isolate RKI-No_524/16			MIC	8 µg/mL
heparin	Plasmodium falciparum	parasite growth	Dd2	12.5 µg/mL, 72 h		inhibition	> 50%
Polymyxin B	Pseudomonas aeruginosa		ATCC 27853	125 µg per disc, 24 h, 37 °C		inhibition zone diameter	12 mm
colistin	Pseudomonas aeruginosa		PA1804 PER-producing isolate			MIC	2 µg/mL
colistin A	Pseudomonas aeruginosa	broth microdilution	ATCC 27853	with: Survanta 10% (2.5 mg/mL phospholipid)	baseline: without surfactant	MIC fold increase	4 fold
gentamicin sulfate	Staphylococcus aureus		ATCC 43300, resistant	18 h, 37 °C, dark		MIC	128 µM
TCATCCGCTG (PNA, CPP-conjugated)	Salmonella enterica serovar Typhimurium		peptide, SL1344	10 µM, 8 h	baseline: untreated	log reduction	5.94 log CFU/mL
Polymyxin B	Klebsiella pneumoniae		ATCC 43863	concentration not given		catalase activity	0.278 U/mol and 0.298 U/mol and 0.312 U/mol
CTCAATCTCT	Salmonella enterica serovar Typhimurium	RNA-seq, refers to: parC (SL1344_3148)	peptide, SL1344	5 µM, 15 min	baseline: water control	log2 fold change	-1.08
GCCATGCTTT (PNA, CPP-conjugated)	Salmonella enterica serovar Typhimurium	refers to: CFU	peptide, SL1344, Caenorhabditis elegans infection model, worms	4 × MIC, 24 h	baseline: untreated	bacterial load reduction	97.2%

Some of these lines once more:
Substance	tested on	test	test system	conditions	scale	endpoint	value
Polymyxin B	Klebsiella pneumoniae		ATCC 43863	concentration not given		catalase activity	0.278 U/mol and 0.298 U/mol and 0.312 U/mol
GCCATGCTTT (PNA, CPP-conjugated)	Salmonella enterica serovar Typhimurium	refers to: CFU	peptide, SL1344, Caenorhabditis elegans infection model, worms	4 × MIC, 24 h	baseline: untreated	bacterial load reduction	97.2%
